Results pooled from the literature.
A part holds a random share of what one study measured. pEC50: −log10 of the molar value.
Chain of UniProt Q13976 (whole entry, looked up): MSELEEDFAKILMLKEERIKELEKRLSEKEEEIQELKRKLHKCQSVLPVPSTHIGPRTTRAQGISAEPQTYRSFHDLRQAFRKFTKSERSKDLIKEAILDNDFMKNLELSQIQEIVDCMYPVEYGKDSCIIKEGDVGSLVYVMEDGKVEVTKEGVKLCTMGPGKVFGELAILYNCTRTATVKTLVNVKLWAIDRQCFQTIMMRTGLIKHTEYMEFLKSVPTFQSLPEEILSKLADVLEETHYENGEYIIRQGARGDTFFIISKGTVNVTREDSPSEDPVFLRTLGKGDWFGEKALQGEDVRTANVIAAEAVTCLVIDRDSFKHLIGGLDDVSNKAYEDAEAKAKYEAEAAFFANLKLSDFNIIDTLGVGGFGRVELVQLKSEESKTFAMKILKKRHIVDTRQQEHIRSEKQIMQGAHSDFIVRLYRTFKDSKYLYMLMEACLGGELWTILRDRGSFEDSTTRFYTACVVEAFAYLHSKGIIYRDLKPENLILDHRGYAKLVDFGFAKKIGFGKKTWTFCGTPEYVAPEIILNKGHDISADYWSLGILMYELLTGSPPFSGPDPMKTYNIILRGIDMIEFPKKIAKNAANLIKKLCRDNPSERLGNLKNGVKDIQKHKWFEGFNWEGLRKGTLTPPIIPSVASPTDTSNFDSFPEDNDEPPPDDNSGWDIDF
Chain of UniProt P10721 (whole entry, unmodified, looked up): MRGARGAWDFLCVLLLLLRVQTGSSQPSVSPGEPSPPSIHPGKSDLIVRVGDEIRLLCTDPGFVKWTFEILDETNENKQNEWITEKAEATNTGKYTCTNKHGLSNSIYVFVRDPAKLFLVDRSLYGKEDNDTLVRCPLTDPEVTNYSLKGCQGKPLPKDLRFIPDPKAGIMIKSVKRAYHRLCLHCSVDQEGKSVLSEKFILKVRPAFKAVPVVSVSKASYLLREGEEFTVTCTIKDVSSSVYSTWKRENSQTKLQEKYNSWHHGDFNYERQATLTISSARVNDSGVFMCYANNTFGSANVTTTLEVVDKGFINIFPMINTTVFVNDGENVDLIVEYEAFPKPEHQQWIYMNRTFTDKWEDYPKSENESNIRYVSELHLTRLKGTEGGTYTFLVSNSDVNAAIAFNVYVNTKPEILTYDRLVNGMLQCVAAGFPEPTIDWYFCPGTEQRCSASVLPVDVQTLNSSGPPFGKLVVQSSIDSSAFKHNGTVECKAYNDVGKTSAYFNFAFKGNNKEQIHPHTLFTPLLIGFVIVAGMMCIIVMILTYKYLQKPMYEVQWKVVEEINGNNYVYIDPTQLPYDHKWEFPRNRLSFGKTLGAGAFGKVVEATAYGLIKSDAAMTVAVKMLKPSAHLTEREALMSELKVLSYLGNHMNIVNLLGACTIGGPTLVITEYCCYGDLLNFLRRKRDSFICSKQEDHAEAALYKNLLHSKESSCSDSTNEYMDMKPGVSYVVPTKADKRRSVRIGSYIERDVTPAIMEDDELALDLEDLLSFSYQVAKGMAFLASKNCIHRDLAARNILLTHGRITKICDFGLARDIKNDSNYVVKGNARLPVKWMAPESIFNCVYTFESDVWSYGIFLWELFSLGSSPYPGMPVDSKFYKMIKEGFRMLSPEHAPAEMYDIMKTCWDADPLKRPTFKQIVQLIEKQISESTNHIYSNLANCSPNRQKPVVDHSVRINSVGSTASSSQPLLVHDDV
Chain of UniProt Q9NYY3 (whole entry, looked up): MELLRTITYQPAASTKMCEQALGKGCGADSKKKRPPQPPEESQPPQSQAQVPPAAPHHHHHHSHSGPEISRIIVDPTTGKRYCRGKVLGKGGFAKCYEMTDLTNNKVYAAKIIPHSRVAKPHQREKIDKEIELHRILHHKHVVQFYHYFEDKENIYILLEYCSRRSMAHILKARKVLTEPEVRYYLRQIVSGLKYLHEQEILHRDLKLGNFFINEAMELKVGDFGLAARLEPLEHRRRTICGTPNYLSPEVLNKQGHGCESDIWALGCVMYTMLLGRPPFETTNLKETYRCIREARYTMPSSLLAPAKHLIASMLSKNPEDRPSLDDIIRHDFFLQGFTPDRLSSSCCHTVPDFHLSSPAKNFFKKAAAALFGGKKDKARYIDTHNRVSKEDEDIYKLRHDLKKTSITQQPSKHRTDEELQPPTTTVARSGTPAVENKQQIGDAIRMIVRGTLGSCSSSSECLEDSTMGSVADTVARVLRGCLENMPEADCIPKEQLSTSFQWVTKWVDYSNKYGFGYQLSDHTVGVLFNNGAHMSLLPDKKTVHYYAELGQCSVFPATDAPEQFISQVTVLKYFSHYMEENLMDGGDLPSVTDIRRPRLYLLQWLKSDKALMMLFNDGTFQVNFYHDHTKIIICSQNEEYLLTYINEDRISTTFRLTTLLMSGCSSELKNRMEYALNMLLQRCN
Chain of UniProt Q8NG66 (whole entry, looked up): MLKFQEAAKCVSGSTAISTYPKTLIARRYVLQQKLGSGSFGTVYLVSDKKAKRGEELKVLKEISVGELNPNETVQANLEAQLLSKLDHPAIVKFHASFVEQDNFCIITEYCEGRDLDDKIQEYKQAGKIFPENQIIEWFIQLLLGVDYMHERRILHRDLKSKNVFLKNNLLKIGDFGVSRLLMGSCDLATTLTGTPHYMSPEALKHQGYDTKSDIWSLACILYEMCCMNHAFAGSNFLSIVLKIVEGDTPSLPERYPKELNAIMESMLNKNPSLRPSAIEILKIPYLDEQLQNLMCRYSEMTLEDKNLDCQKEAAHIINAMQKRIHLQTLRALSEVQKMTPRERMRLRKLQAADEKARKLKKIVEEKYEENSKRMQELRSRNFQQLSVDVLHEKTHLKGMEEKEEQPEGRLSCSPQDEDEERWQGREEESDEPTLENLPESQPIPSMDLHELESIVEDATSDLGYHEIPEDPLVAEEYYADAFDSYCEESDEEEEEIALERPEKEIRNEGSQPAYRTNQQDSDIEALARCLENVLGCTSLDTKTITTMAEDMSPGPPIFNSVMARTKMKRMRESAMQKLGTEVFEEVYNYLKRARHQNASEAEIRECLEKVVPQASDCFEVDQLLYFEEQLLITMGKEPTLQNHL
Chain of UniProt P51957 (whole entry, looked up): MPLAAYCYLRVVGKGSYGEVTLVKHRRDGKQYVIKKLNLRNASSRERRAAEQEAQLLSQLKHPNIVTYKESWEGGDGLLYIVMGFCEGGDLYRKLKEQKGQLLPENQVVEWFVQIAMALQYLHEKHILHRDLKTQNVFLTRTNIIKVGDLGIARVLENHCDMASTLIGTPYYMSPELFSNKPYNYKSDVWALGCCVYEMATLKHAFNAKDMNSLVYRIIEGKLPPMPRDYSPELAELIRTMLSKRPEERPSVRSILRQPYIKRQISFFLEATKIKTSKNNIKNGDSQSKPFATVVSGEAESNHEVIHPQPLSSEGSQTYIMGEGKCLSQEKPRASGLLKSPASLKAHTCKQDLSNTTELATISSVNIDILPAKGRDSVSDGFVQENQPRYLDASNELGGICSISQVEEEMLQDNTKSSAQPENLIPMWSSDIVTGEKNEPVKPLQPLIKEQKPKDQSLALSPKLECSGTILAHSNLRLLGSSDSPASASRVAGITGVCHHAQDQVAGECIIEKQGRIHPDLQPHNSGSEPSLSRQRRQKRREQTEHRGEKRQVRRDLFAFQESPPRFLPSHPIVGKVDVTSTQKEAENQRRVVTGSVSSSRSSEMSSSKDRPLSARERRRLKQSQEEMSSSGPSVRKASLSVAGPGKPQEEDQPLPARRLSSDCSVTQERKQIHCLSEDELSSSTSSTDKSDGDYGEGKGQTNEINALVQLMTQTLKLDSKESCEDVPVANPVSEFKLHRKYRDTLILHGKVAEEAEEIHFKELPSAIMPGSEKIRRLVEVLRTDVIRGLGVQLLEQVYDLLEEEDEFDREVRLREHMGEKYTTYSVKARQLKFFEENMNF

Study 1
Target: Calcium/calmodulin-dependent protein kinase type II subunit alpha (CAMK2A, Homo sapiens, UniProt Q9UQM7)
Chain of UniProt Q9UQM7 (whole entry, looked up): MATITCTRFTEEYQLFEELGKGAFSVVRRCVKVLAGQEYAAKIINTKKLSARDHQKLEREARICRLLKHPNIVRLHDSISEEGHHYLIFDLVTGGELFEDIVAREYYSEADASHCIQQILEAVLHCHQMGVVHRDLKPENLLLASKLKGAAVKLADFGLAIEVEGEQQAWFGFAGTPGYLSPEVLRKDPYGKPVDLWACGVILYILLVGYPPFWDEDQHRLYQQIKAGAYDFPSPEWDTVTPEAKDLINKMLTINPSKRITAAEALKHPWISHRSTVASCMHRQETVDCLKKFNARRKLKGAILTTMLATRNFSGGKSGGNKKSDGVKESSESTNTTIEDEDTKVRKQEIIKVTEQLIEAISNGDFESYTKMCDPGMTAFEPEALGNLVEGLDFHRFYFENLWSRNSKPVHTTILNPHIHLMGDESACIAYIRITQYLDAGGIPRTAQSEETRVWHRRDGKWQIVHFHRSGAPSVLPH
Effect on: enzyme activity
Mode: inhibitor
Tested at: 10 µM
For `CCOc1cc(CC(=O)N[C@@H](CC(C)C)c2ccccc2N2CCCCC2)ccc1C(=O)O`, the inhibition was -1%.
For `CC(O)C(=O)O` (stereo not shown), the inhibition was 2%.
With `O=c1c(O[C@@H]2O[C@H](CO[C@@H]3O[C@H](CO)[C@@H](O)[C@H](O)[C@H]3O)[C@@H](O)[C@H](O)[C@H]2O)c(-c2ccc(O)cc2)oc2cc(O)cc(O)c12` the inhibition was -32%.
With `CN(C)CCc1c[nH]c2ccc(CS(=O)(=O)N3CCCC3)cc12` the inhibition was -5%.
`Cc1cccc2c3c(ccc12)C1=C(C(=O)C3=O)[C@@H](C)CO1` has an inhibition of 3%.
For `COc1ccc2ccc(=O)oc2c1CC=C(C)C`, the inhibition was -21%.
`OC[C@H]1O[C@@H](Oc2ccc(O)cc2)[C@H](O)[C@@H](O)[C@@H]1O` gave an inhibition of 28%.
With `CCCCC(=O)O[C@]1(C(=O)CO)[C@@H](C)C[C@H]2[C@@H]3CCC4=CC(=O)C=C[C@]4(C)[C@@]3(F)[C@@H](O)C[C@@]21C` the inhibition was -3%.
The inhibition of `Nc1ccc(S(=O)(=O)Nc2ccc(Cl)nn2)cc1` is reported as 5%.
For `CC(C)=CCC1=C(O)C(=O)c2ccccc2C1=O`, the inhibition was 0%.
The inhibition of `CC1CC(OC(=O)C(O)c2ccccc2)CC(C)(C)C1` (stereo not shown) is reported as -6%.

Study 2
Target: Beta-1 adrenergic receptor (ADRB1, Homo sapiens, UniProt P08588)
Chain of UniProt P08588 (whole entry, looked up): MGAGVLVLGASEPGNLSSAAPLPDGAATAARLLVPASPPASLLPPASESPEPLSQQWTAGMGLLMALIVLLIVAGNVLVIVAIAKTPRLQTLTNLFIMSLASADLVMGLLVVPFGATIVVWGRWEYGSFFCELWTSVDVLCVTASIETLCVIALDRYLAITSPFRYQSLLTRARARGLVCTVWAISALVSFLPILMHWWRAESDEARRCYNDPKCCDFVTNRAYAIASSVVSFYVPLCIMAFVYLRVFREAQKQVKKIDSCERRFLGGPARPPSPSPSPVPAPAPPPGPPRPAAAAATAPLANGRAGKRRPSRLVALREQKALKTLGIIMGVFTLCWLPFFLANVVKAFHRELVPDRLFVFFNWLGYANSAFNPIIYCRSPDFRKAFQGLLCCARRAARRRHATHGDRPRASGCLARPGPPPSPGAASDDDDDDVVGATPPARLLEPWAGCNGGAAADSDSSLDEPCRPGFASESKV
Mode: agonist
The pEC50 of `Cc1noc2c(-c3cnn(C)c3)cc(-c3cccc(C(F)(F)F)c3)nc12` is reported as at most 4.00.
For `Cc1cc(-c2cc(-c3cccc(C(F)(F)F)c3)nc3c(C)noc23)ccn1`, the pEC50 was at most 4.00.
For `c1cnc(OCC2CCCN(c3ccc4ccccc4n3)C2)nc1` (stereo not shown), the pEC50 was at most 4.00.
`Cc1noc2c(NC3CCC(O)CC3)cc(-c3ccc(F)cc3)nc12` (stereo not shown) gave a pEC50 of at most 4.00.
`Cc1cc(C)n(-c2cc(OCC3CCN(c4nc5c(cc4C#N)CCC5)CC3)ncn2)n1` has a pEC50 of at most 4.00.
`CC(C)Cc1cc(CC2(NCc3ccc(N(C)C)cc3)COC2)no1` gave a pEC50 of at most 4.00.
`OC(c1ccc2c(c1)CCO2)c1nc(Nc2ccccc2)n[nH]1` (stereo not shown) gave a pEC50 of at most 4.00.
For `C[C@H](O)c1onc(-c2ccccc2)c1C(=O)N1CCOCC1`, the pEC50 was at most 4.00.
With `O=C(NCCc1ccccn1)c1ccnc(-c2nnc3ccc(N4CCOCC4)nn23)c1` the pEC50 was at most 4.00.
`CN1C(=O)COC[C@@H]1[C@H](O)c1ccc(NC(=O)Cc2ccccc2)cc1` gave a pEC50 of at most 4.00.
`COc1ccccc1N1CCN([S+](=O)([O-])c2ccc(C)cc2)CC1` has a pEC50 of at most 4.00.
The pEC50 of `CN(C)c1ccc(CNC2(Cc3cc(-c4cccc(O)c4)on3)COC2)cc1` is reported as at most 4.00.
`O=C(c1cc(-c2ccc(F)cc2)nc2ccccc12)N1CCCC(c2nc(C3CCOCC3)no2)C1` (stereo not shown) has a pEC50 of at most 4.00.
`CC1(C)C=Cc2cc3ccc(=O)oc3cc2O1` has a pEC50 of at most 4.00.
The pEC50 of `Cc1noc2c(NC3CCOCC3)cc(-c3ccsc3)nc12` is reported as at most 4.00.
`COc1ccc2c(Cn3nnc(-c4ccc(Br)cc4)n3)cc(=O)oc2c1` has a pEC50 of at most 4.00.
For `Cc1c(CN2CCC(Nc3ncnc4sc(CC(F)(F)F)cc34)CC2)ccc2c1cc(C#N)n2Cc1cn[nH]c1`, the pEC50 was at most 4.00.
The pEC50 of `Cc1cc(-c2nc3ccccc3s2)nc2ccccc12` is reported as at most 4.00.

Study 3
Compound: O=C(NC[C@@H]1[C@H]2CN(C(=O)OCc3cc(C(F)(F)F)cc(C(F)(F)F)c3)C[C@@H]12)c1ccc2[nH]nnc2c1
Effect on: cell-free assay
Technique: competition with immobilised ligand
Tested at: 1 µM
HIPK2 (Homo sapiens, UniProt Q9H2X6) — remaining binding: 100%.
The remaining binding was 100% (NEK11 (Homo sapiens, UniProt Q8NG66)).
It gave 83% for remaining binding (PRKG1 (Homo sapiens, UniProt Q13976)).
For EGFR (Homo sapiens, UniProt P00533, L861Q): remaining binding read 100%.
It gave 93% for remaining binding (KIT (Homo sapiens, UniProt P10721, D816V)).
It gave 100% for remaining binding (EGFR (Homo sapiens, UniProt P00533, G719S)).
It gave 75% for remaining binding (PIK3CD (Homo sapiens, UniProt O00329)).
For NEK10 (Homo sapiens, UniProt Q6ZWH5): remaining binding read 73%.
It gave 84% for remaining binding (TXK (Homo sapiens, UniProt P42681)).
NLK (Homo sapiens, UniProt Q9UBE8) — remaining binding: 100%.
For CDKL1 (Homo sapiens, UniProt Q00532): remaining binding read 84%.
It gave 83% for remaining binding (DDR1 (Homo sapiens, UniProt Q08345)).
It gave 95% for remaining binding (MAP2K7 (Homo sapiens, UniProt O14733)).
It gave 77% for remaining binding (SNRK (Homo sapiens, UniProt Q9NRH2)).
The remaining binding was 100% (STK4 (Homo sapiens, UniProt Q13043)).
It gave 89% for remaining binding (PLK2 (Homo sapiens, UniProt Q9NYY3)).
For ERBB3 (Homo sapiens, UniProt P21860): remaining binding read 96%.
It gave 81% for remaining binding (BMX (Homo sapiens, UniProt P51813)).
The remaining binding was 87% (STK3 (Homo sapiens, UniProt Q13188)).
The remaining binding was 84% (SGK3 (Homo sapiens, UniProt Q96BR1)).
The remaining binding was 94% (TNK1 (Homo sapiens, UniProt Q13470)).

Study 4
Structure (SMILES): O=c1cc(N2CCOCC2)oc2c(-c3ccccc3)cccc12
Effect on: enzyme activity
Mode: inhibitor
Tested at: 0.5 µM
Baseline: control
It gave 103% for remaining activity (STK38 (Homo sapiens, UniProt Q15208)).
LRRK2 (Homo sapiens, UniProt Q5S007) — remaining activity: 96.9%.
It gave 103% for remaining activity (MKNK2 (Homo sapiens, UniProt Q9HBH9)).
PRKCD (Homo sapiens, UniProt Q05655) — remaining activity: 96%.
The remaining activity was 90.1% (MAP3K10 (Homo sapiens, UniProt Q02779)).
The remaining activity was 64.8% (CSNK2A1 (Homo sapiens, UniProt P68400)).
The remaining activity was 95.1% (NEK4 (Homo sapiens, UniProt P51957)).
For PLK2 (Homo sapiens, UniProt Q9NYY3): remaining activity read 98.9%.
EPHA5 (Homo sapiens, UniProt P54756) — remaining activity: 113%.
PRKCI (Homo sapiens, UniProt P41743) — remaining activity: 99.5%.
It gave 104% for remaining activity (MAPK12 (Homo sapiens, UniProt P53778)).
Cyclin-dependent kinase 9, with cyclin T1 (CDK9, Homo sapiens, UniProt P50750) — remaining activity: 103%.
AKT3 (Homo sapiens, UniProt Q9Y243) — remaining activity: 102%.
For WNK2 (Homo sapiens, UniProt Q9Y3S1): remaining activity read 110%.
It gave 94.5% for remaining activity (BTK (Homo sapiens, UniProt Q06187)).
MAP2K6 (Homo sapiens, UniProt P52564) — remaining activity: 97.5%.
The remaining activity was 96% (IRAK4 (Homo sapiens, UniProt Q9NWZ3)).
It gave 92.9% for remaining activity (KIT (Homo sapiens, UniProt P10721)).
It gave 94.5% for remaining activity (LYN (Homo sapiens, UniProt P07948)).
For MAPK13 (Homo sapiens, UniProt O15264): remaining activity read 93.3%.
For CHEK1 (Homo sapiens, UniProt O14757): remaining activity read 104%.
For MAP4K2 (Homo sapiens, UniProt Q12851): remaining activity read 87.8%.
It gave 105% for remaining activity (PRKG1 (Homo sapiens, UniProt Q13976)).

Some of these lines once more (study 1):
`Cc1cccc2c3c(ccc12)C1=C(C(=O)C3=O)[C@@H](C)CO1` has an inhibition of 3%.
For `CC(C)=CCC1=C(O)C(=O)c2ccccc2C1=O`, the inhibition was 0%.
With `CCCCC(=O)O[C@]1(C(=O)CO)[C@@H](C)C[C@H]2[C@@H]3CCC4=CC(=O)C=C[C@]4(C)[C@@]3(F)[C@@H](O)C[C@@]21C` the inhibition was -3%.
The inhibition of `Nc1ccc(S(=O)(=O)Nc2ccc(Cl)nn2)cc1` is reported as 5%.
For `CC(O)C(=O)O` (stereo not shown), the inhibition was 2%.
For `COc1ccc2ccc(=O)oc2c1CC=C(C)C`, the inhibition was -21%.
`OC[C@H]1O[C@@H](Oc2ccc(O)cc2)[C@H](O)[C@@H](O)[C@@H]1O` gave an inhibition of 28%.
The inhibition of `CC1CC(OC(=O)C(O)c2ccccc2)CC(C)(C)C1` (stereo not shown) is reported as -6%.
